{"data": "Measured values gathered from unrelated publications", "target": "Serine/threonine-protein kinase Nek10 (NEK10, Homo sapiens, UniProt Q6ZWH5)", "note": "Protocols differ between the studies behind these lines."}
{"SMILES": "COc1cc(Nc2nccc(-c3cnn4nc(OC)ccc34)n2)cc(C(F)(F)F)c1", "assay": "binding, competition with immobilised ligand", "conditions": "1 µM", "measurement": "remaining binding", "value": "100%"}
{"SMILES": "CC(C)=CC1OC(C)(C)C2C=C3C(=O)C(Cl)=CC(O)C3C3C(O)C4OC4C(=O)C132 (centres unmarked)", "assay": "cell-free assay, competition with immobilised ligand", "conditions": "10 µM", "measurement": "remaining binding", "value": "79%"}
{"SMILES": "CNC(=O)C1CCN(c2cc(C)c(F)cc2NC(=O)c2ccc(-c3cc(O)ccc3C)c(C)c2)CC1", "assay": "binding, competition with immobilised ligand", "conditions": "1 µM", "measurement": "remaining binding", "value": "66%"}
{"SMILES": "C=CC(=O)N1CCCC(n2c(=O)c3ncccc3n(Cc3ccc(Oc4ccccc4)cc3)c2=O)C1 (centres unmarked)", "assay": "cell-free assay, competition with immobilised ligand", "conditions": "1 µM", "measurement": "remaining binding", "value": "76%"}
{"SMILES": "CNC1C[S+]2CC[S+]3CC[S+](C1)[Ru-4]321([N]=C=S)[n]2c3ccc(OC)cc3c3c4c(c5cc(F)c[n+]1c5c32)C(=O)NC4=O (centres unmarked)", "assay": "KinomeScan", "conditions": "0.1 µM", "scale": "reference: untreated", "measurement": "remaining binding", "value": "100%"}
{"SMILES": "COc1cc(Nc2nc(C)cc(-c3cnn4nc(OC)ccc34)n2)cc(C(F)(F)F)c1", "assay": "inhibitor", "conditions": "1 µM", "scale": "reference: control", "measurement": "remaining activity", "value": "100%"}
{"SMILES": "Nc1ncc2c(n1)-c1c([nH]c3ccc(C4=CCOCC4)cc13)CCC2", "assay": "binding, competition with immobilised ligand", "conditions": "1 µM", "measurement": "remaining binding", "value": "100%"}
{"SMILES": "Cc1cnc2nc1Nc1cccc(c1)COC/C=C/COCc1cc(ccc1OCCN1CCOCC1)N2", "assay": "binding", "conditions": "0.1 µM", "measurement": "remaining binding", "value": "80%"}
{"SMILES": "C=CC(=O)N1CCc2ccc(-n3c(=O)ccc4cnc5ccc(-c6cnn(C)c6)cc5c43)cc21", "assay": "KINOMEscan", "conditions": "1 µM", "scale": "reference: DMSO control", "measurement": "remaining binding", "value": "84%"}
{"SMILES": "CCn1cc(C(=O)O)c(=O)c2c(N)c(F)c(NC3CCCCC3)cc21", "assay": "kinase activity", "conditions": "0.1 µM, with: ATP at Km", "measurement": "inhibition", "value": "4.8%"}
{"SMILES": "COc1c(Cl)cccc1Nc1c(-c2ccncc2C#C[C@@]2(C)CCCN2C(=O)/C=C/CN(C)C)[nH]c2c1C(=O)NCC2", "assay": "binding, competition with immobilised ligand", "conditions": "3 µM", "measurement": "remaining binding", "value": "82%"}
{"note": "A few entries again:"}
{"SMILES": "CNC1C[S+]2CC[S+]3CC[S+](C1)[Ru-4]321([N]=C=S)[n]2c3ccc(OC)cc3c3c4c(c5cc(F)c[n+]1c5c32)C(=O)NC4=O (centres unmarked)", "assay": "KinomeScan", "conditions": "0.1 µM", "scale": "reference: untreated", "measurement": "remaining binding", "value": "100%"}
